Measured values pooled from the literature.
Parts stem from different laboratories: compare values within a part only.
Chain of UniProt P25098 (whole entry, looked up): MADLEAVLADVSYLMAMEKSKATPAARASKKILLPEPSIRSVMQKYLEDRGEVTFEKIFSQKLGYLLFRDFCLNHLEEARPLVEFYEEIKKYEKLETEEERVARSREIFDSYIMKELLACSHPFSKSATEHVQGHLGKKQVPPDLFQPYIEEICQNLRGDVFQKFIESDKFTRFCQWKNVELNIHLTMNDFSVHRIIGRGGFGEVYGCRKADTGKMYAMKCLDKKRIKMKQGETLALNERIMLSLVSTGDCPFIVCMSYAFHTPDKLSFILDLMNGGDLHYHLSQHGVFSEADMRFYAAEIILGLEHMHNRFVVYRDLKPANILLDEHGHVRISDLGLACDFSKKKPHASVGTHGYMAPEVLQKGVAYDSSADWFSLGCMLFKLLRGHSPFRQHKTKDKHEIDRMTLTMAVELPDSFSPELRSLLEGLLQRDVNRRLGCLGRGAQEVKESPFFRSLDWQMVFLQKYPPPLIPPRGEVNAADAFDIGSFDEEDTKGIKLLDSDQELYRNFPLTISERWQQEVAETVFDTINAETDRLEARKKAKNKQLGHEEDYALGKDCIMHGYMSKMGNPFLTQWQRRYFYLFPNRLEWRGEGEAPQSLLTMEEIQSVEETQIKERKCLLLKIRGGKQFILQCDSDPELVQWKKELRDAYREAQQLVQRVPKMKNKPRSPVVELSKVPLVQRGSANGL
Chain of UniProt P30291 (whole entry, looked up): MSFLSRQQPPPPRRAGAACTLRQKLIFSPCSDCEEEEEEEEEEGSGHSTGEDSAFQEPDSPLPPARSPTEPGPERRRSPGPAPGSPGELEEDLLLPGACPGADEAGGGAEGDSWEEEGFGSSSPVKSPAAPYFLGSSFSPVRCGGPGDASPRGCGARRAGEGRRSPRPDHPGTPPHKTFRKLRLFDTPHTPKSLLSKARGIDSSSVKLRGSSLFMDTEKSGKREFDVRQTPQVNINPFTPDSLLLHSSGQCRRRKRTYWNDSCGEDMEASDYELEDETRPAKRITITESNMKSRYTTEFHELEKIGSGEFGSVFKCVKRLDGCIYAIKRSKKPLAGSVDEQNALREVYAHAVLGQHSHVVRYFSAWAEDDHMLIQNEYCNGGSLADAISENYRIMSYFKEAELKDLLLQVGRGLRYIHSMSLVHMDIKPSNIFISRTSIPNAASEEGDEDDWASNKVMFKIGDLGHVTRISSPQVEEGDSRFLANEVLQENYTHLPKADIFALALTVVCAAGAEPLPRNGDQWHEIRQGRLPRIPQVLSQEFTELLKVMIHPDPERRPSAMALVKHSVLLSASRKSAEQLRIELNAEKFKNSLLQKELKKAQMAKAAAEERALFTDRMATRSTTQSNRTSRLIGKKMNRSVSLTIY
Chain of UniProt O75716 (whole entry, looked up): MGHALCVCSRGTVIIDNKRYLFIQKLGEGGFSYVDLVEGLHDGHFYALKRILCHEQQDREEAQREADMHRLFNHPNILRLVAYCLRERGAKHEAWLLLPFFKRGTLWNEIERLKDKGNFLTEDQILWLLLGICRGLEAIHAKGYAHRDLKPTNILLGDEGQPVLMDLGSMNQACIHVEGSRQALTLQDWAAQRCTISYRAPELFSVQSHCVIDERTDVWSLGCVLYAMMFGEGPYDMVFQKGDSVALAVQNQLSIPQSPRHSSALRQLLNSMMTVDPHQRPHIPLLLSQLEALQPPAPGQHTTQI
Chain of UniProt Q13554 (whole entry, looked up): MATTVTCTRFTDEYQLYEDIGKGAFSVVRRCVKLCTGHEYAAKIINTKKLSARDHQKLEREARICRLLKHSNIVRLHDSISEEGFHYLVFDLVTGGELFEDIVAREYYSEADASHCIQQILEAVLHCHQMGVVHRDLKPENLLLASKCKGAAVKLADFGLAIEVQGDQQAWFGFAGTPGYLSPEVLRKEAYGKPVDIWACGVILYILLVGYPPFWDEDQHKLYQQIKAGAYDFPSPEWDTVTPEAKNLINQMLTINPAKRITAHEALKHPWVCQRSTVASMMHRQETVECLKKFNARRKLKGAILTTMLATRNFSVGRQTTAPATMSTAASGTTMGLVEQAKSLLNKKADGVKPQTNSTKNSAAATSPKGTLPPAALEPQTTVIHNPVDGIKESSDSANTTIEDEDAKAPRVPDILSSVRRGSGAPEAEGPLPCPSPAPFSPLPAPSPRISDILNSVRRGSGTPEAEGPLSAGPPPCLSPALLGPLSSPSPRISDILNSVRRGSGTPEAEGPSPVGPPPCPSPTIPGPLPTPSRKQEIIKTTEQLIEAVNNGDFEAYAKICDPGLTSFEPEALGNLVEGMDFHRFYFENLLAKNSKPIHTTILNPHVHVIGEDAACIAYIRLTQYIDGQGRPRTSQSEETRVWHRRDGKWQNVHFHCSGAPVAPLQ
Chain of UniProt P46734 (whole entry, looked up): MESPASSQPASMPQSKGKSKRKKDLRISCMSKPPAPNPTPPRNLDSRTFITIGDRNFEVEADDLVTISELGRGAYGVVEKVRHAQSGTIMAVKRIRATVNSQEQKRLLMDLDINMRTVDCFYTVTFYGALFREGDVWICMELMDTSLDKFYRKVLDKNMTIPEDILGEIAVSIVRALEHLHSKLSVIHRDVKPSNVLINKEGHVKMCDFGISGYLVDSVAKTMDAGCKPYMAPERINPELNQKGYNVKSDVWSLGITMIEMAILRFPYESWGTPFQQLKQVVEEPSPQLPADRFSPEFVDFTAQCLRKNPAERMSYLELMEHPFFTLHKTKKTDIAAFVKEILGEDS
Chain of UniProt Q09013 (whole entry, looked up): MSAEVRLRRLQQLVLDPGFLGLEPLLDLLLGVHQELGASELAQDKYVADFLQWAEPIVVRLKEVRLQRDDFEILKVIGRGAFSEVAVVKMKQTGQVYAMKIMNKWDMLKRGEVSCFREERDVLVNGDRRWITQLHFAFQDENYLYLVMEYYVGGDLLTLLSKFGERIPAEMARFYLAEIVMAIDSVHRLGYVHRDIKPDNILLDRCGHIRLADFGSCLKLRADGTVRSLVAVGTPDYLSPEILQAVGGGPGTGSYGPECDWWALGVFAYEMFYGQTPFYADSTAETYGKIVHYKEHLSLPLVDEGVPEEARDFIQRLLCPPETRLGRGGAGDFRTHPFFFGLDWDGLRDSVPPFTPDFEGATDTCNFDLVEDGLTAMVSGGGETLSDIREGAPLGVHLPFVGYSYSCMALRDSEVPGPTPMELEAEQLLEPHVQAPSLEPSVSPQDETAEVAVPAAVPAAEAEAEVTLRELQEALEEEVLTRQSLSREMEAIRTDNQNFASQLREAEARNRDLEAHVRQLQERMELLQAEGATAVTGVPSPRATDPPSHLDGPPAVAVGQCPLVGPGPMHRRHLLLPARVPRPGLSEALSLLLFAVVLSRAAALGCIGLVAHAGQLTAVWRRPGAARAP
Chain of UniProt O75385 (whole entry, looked up): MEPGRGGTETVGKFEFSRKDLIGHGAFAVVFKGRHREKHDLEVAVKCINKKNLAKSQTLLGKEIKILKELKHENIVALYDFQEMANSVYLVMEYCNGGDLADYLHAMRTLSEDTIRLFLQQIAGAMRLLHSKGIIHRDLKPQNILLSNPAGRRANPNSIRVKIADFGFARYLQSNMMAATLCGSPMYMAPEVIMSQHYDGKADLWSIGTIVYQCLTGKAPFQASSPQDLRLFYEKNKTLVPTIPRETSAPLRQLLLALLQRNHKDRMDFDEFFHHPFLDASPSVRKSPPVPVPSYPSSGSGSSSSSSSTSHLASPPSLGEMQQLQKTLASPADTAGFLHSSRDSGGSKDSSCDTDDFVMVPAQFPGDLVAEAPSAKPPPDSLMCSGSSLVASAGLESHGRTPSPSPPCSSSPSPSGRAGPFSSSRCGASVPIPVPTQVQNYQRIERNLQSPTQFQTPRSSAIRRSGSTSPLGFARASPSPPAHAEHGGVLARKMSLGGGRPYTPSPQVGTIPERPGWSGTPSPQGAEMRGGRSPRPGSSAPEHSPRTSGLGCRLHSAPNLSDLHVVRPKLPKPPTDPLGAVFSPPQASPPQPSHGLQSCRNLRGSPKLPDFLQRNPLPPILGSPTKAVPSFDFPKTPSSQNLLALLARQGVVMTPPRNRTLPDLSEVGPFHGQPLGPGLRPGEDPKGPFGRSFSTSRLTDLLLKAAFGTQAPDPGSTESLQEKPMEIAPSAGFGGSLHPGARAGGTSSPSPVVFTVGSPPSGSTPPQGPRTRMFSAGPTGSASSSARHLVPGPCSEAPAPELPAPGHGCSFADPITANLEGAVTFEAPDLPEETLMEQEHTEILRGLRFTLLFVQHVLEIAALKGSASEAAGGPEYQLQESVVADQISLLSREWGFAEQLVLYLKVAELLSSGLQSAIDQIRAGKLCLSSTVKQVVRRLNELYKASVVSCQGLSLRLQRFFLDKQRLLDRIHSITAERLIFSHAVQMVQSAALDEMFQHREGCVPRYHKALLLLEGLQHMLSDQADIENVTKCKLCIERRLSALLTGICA

Sample 1
Target: Calcium/calmodulin-dependent protein kinase type II subunit alpha (CAMK2A, Homo sapiens, UniProt Q9UQM7)
Chain of UniProt Q9UQM7 (whole entry, looked up): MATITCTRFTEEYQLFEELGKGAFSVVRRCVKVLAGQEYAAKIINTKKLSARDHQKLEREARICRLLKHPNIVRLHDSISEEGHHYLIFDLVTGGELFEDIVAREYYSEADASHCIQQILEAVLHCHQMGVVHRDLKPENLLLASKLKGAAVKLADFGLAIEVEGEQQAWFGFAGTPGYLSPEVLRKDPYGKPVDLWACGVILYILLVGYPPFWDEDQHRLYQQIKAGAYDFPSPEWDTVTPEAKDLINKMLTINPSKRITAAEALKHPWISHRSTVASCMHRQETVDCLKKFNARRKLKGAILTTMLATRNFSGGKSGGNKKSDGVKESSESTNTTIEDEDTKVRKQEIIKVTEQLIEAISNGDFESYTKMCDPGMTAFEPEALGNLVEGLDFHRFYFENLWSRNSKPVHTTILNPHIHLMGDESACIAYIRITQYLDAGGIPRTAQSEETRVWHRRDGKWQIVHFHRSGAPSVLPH
Observed: enzyme activity
Mode: inhibitor
Concentration: 10 µM
Compound	inhibition
Nc1[nH]c(=O)nc2c1ncn2[C@@H]1O[C@H](CO)[C@@H](O)[C@H]1O	-12%
CC(O)(CCO)CC(=O)O (stereo not drawn)	34%
C[n+]1c2n(c(=O)c3ccccc31)CCc1c-2[nH]c2ccccc12	-7%
CS(=O)(=O)c1ccc(Oc2cc(F)cc(C#N)c2)c2c1[C@H](O)[C@H](F)[C@@H]2F	1%
CC(=O)O[C@@H]1C[C@]23C4=CC[C@@]5(C)[C@H](C(=O)O)[C@@](C)([C@H](C)C(C)C)CC[C@]5(C)[C@H]4CC[C@H]2[C@@](C)(COC3O)[C@H]1O[C@@H]1O[C@H](CO)[C@@H](O)[C@H](O)[C@H]1O (stereo partly drawn)	-8%
COc1ccc(-c2cc(=O)c3c(O)cc(O[C@@H]4O[C@H](C(=O)O)[C@@H](O)[C@H](O)[C@H]4O)cc3o2)cc1O	-5%
COc1cc(/C=C/CO)ccc1O[C@@H]1O[C@H](CO)[C@@H](O)[C@H](O)[C@H]1O	6%
COc1cc(CCC(=O)CC(O)CCc2ccc(O)c(OC)c2)ccc1O (stereo not drawn)	-13%
COc1ccc2cc3[n+](cc2c1O)CCc1cc2c(cc1-3)OCO2	45%
N[C@@H](CCC(=O)O)C(=O)N[C@@H](Cc1c[nH]c2ccccc12)C(=O)O	4%
C[N+]1(C)[C@@H]2CC(OC(=O)C(O)(c3cccs3)c3cccs3)C[C@H]1[C@@H]1O[C@@H]12 (stereo partly drawn)	1%
CC(=O)O[C@H]1[C@H](O[C@H]2CC[C@]34C[C@]35CC[C@]3(C)[C@@H]([C@@]6(C)CC[C@@H](C(C)(C)O)O6)[C@@H](O)C[C@@]3(C)[C@@H]5C[C@H](O[C@@H]3O[C@H](CO)[C@@H](O)[C@H](O)[C@H]3O)[C@H]4C2(C)C)OC[C@@H](O)[C@@H]1O	-23%

Sample 2
Cell line: mouse MPNST tumor cells
Technique: high-content immunofluorescence imaging
Refers to: nuclear SOX9
Concentration: 10 µM
Time: 12 h
Notes: mean of 2 replicates
Reference: DMSO control
Reading: higher = more nuclear SOX9
SMILES	nuclear SOX9 intensity
O=C(Nc1cc(Cl)ccc1O)Nc1cc(C(F)(F)F)ccc1Cl	112 % of DMSO
COc1ccc(OC)c(C(O)CNC(=O)CN)c1 (stereo not drawn)	104 % of DMSO
Nc1ccc(C(=O)NCC(=O)O)cc1	106 % of DMSO
CS(=O)(=O)CCNCc1nc(-c2ccc3ncnc(Nc4ccc(OCc5cccc(F)c5)c(Cl)c4)c3c2)cs1	105 % of DMSO
CN1C(CCl)Nc2cc(Cl)c(S(N)(=O)=O)cc2S1(=O)=O (stereo not drawn)	89 % of DMSO
CO[C@@]1(NC(=O)C(C(=O)O)c2ccc(O)cc2)C(=O)N2C(C(=O)O)=C(CSc3nnnn3C)CO[C@@H]21 (stereo partly drawn)	100 % of DMSO
O=C(Nc1ccc(Cl)c(Cl)c1)Nc1ccc(Cl)c(Cl)c1	105 % of DMSO
OCCN(CCO)c1ccc(C(c2ccc(Cl)cc2)c2ccc(N(CCO)CCO)cc2)cc1	88.9 % of DMSO

Sample 3
Organism: Sarcocystis neurona
Observed: parasite growth
Concentration: 10 µM
Time: 96 h
Reference: untreated
Compound	log2 fold change
C[C@@H](c1ncncc1F)[C@](O)(Cn1cncn1)c1ccc(F)cc1F	0.28
NC1CCN(c2nc3c(cc2F)c(=O)c(C(=O)O)cn3-c2ccc(F)cc2F)C1 (stereo not drawn)	-0.17
C=C1/C(=C\C=C2/CCC[C@]3(C)[C@@H]([C@H](C)/C=C/[C@@H](O)C4CC4)CC[C@@H]23)C[C@@H](O)C[C@@H]1O	0.31
COC1=C(OC)C(=O)C(CCCCCCCCCCO)=C(C)C1=O	0.33
C#C[C@]1(O)CC[C@H]2[C@@H]3CCc4cc(O)ccc4[C@H]3CC[C@@]21C	0.52
CCn1cc(C(=O)O)c(=O)c2ccc(C)nc21	0.31
CN(CCOc1ccc(CC2SC(=O)NC2=O)cc1)c1ccccn1 (stereo not drawn)	-0.17
CCC(=O)O[C@]1(C(=O)CCl)[C@@H](C)C[C@H]2[C@@H]3CCC4=CC(=O)C=C[C@]4(C)[C@@]3(F)[C@@H](O)C[C@@]21C	-0.1
CC(C)n1c(/C=C/C(O)CC(O)CC(=O)O)c(-c2ccc(F)cc2)c2ccccc21 (stereo not drawn)	0.26

Sample 4
SMILES: CCOC(=O)c1cc2cc(-c3cc(C(=O)NCc4ccc(C(=O)O)cc4)nn3C)ccc2[nH]1
Observed: cell-free assay
Technique: competition with immobilised ligand
Concentration: 0.1 µM
target	remaining binding
CAMK2B (Homo sapiens, UniProt Q13554)	96%
MAPK6 (Homo sapiens, UniProt Q16659)	97%
PHKG2 (Homo sapiens, UniProt P15735)	100%
MAP2K3 (Homo sapiens, UniProt P46734)	100%
ERBB2 (Homo sapiens, UniProt P04626)	99%
DMPK (Homo sapiens, UniProt Q09013)	87%
GRK1 (Homo sapiens, UniProt Q15835)	95%
WEE1 (Homo sapiens, UniProt P30291)	90%
SRMS (Homo sapiens, UniProt Q9H3Y6)	90%
MYLK (Homo sapiens, UniProt Q15746)	100%
STK24 (Homo sapiens, UniProt Q9Y6E0)	92%
ULK1 (Homo sapiens, UniProt O75385)	87%
GRK2 (Homo sapiens, UniProt P25098)	100%
FLT4 (Homo sapiens, UniProt P35916)	97%
STK16 (Homo sapiens, UniProt O75716)	78%
BRAF (Homo sapiens, UniProt P15056, V600E)	100%
ROCK2 (Homo sapiens, UniProt O75116)	85%
STK32A (Homo sapiens, UniProt Q8WU08)	75%
CAMK1G (Homo sapiens, UniProt Q96NX5)	100%

For quick reference, copied from above (sample 2):
SMILES	nuclear SOX9 intensity
Nc1ccc(C(=O)NCC(=O)O)cc1	106 % of DMSO
CS(=O)(=O)CCNCc1nc(-c2ccc3ncnc(Nc4ccc(OCc5cccc(F)c5)c(Cl)c4)c3c2)cs1	105 % of DMSO
CN1C(CCl)Nc2cc(Cl)c(S(N)(=O)=O)cc2S1(=O)=O (stereo not drawn)	89 % of DMSO
CO[C@@]1(NC(=O)C(C(=O)O)c2ccc(O)cc2)C(=O)N2C(C(=O)O)=C(CSc3nnnn3C)CO[C@@H]21 (stereo partly drawn)	100 % of DMSO
O=C(Nc1ccc(Cl)c(Cl)c1)Nc1ccc(Cl)c(Cl)c1	105 % of DMSO
OCCN(CCO)c1ccc(C(c2ccc(Cl)cc2)c2ccc(N(CCO)CCO)cc2)cc1	88.9 % of DMSO
